Experimental data gathered from unrelated publications.
Every numbered part comes from another study and shows a few of its results, in no order. Substitutions count along the parent as printed.

Sample 1 — method: protein-binding microarray; form: double-stranded DNA, one strand shown; matrix: in vitro; concentration: 250 nM; notes: 60-bp whole probe; added: salmon DNA 0.4 mg/ml; reference: random background probes; reading: higher = stronger binding; all sequences stand within: GCCTAGCAC … GTCTTGATTCGCTTGACGCTGCTG
Target: Interferon regulatory factor 5, full length, phosphomimetic (IRF5, Homo sapiens, UniProt Q13568-2, residues 1-514, K96S/S451D/S453D/S456D/S462D)
With `TTAGATTTCAGTATCGATAAGTGCTAG` the log fluorescence was 7.95 z-score.
`GCCTACTCGCTCGTCCGGAGGTGCTAG` has a log fluorescence of -0.306 z-score.
With `GACGGTTTCCTACGGCTGACGTGCTAG` the log fluorescence was 0.188 z-score.
With `TTAGGACTCGGGTTTCGGTTAGTGCTA` the log fluorescence was 7.05 z-score.
For `GACGATTTCGTGACTGGAGACGTGCTA`, the log fluorescence was 0.511 z-score.
With `GACGAACTGAGTTTCGAGAGGTGCTAG` the log fluorescence was 4.41 z-score.
`GACGGTATCGACTATCGGGTCGTGCTA` gave a log fluorescence of 4.98 z-score.

Sample 2 — method: protein binding microarray; form: double-stranded DNA, one strand shown; matrix: in vitro; concentration: not given; reference: not given; reading: higher = stronger binding
Target: Histone acetyltransferase KAT6A, winged helix 2, GST fusion (KAT6A, Homo sapiens, UniProt Q92794, residues 85-181)
Notes: 8-mer, flanks averaged, mean of 2 arrays, mostly near background
Residues (chain): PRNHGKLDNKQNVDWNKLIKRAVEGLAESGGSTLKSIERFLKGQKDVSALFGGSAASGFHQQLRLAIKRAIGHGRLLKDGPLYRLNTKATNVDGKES
`ATTGACAC` has an E-score of 0.0778.
`CCTCCAGC` gave an E-score of 0.00732.
For `CAAGTGAG`, the E-score was -0.11.
With `ACATTCTC` the E-score was -0.11.
With `ACTCGACG` the E-score was 0.0732.

Sample 3 — target: CCNB2, cyclin fold, Cln2 fusion (human); method: yeast growth competition, sequencing; matrix: yeast; notes: strong parent motif; reference: not given; reading: higher = stronger binding
Starting sequence: PKMYT1 docking peptide (human); SFEPRNLLSLFED; partner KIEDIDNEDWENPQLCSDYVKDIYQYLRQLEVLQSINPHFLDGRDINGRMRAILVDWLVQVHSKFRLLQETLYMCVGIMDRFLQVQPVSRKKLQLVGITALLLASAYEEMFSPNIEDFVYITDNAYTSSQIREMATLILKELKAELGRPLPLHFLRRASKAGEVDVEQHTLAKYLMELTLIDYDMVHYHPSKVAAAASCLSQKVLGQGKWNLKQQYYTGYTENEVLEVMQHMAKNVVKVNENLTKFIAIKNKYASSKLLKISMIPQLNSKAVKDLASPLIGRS
`D13V` — result for “normalised enrichment score”: 0.463.
`L10V`: “normalised enrichment score” 0.813.
For `N6H`, “normalised enrichment score” read -0.4.
Under “normalised enrichment score”, `E3H` is recorded as 1.23.

Single results of other studies
For `PhoQ, residues 284 288 289 292 302 303 TLMATV`, the fold induction was 1.98 (PhoP, residues 12 14 15 18 19 SQCLL (Escherichia coli, UniProt P23836); Sort-seq, item: YFP reporter; E. coli; PhoQ-PhoP variant library, added: 10 µM Mg2+; reference: high Mg2+ state, higher = stronger signaling).

For quick reference, copied from above (sample 1):
`GCCTACTCGCTCGTCCGGAGGTGCTAG` has a log fluorescence of -0.306 z-score.
With `TTAGGACTCGGGTTTCGGTTAGTGCTA` the log fluorescence was 7.05 z-score.
With `GACGAACTGAGTTTCGAGAGGTGCTAG` the log fluorescence was 4.41 z-score.
